{"data": "Measured values of several laboratories", "note": "Each line is one published result; not all experiments were run side by side."}
{"SMILES": "CCCCCCCCC1(CCCCCCCC)c2cc(C#Cc3cc4[n+]5c(c3)-c3cccc[n+]3[Ir-3]536([n+]5ccccc5-4)[n+]4ccccc4-c4cc(-c5ccccc5)cc([n+]43)-c3cccc[n+]36)ccc2-c2ccc(C#Cc3cc4[n+]5c(c3)-c3cccc[n+]3[Ir-3]536([n+]5ccccc5-4)[n+]4ccccc4-c4cc(-c5ccccc5)cc([n+]43)-c3cccc[n+]36)cc21.F[P-](F)(F)(F)(F)F.F[P-](F)(F)(F)(F)F.F[P-](F)(F)(F)(F)F.F[P-](F)(F)(F)(F)F.F[P-](F)(F)(F)(F)F.F[P-](F)(F)(F)(F)F", "sample": "acetonitrile", "tested at": "5 µM", "relative to": "[Ru(bpy)3](PF6)2", "singlet oxygen quantum yield": 0.26}
{"SMILES": "Cn1cncn1.[Ru+2].c1cc(-c2ccc3ccccc3n2)nc(-c2ccc3ccccc3n2)c1.c1ccc2cc3nc4c5cccnc5c5ncccc5c4nc3cc2c1", "sample": "methanol", "setting": "irradiation 460 nm", "singlet oxygen quantum yield": 0.78}
{"SMILES": "COc1cc(OC)cc(C2=C3C(C)=C(I)C(/C=C/c4c[nH]c5ccccc45)=[N+]3[B-](F)(F)n3c(/C=C/c4c[nH]c5ccccc45)c(I)c(C)c32)c1", "technique": "DPBF absorbance decrease", "sample": "DMSO", "relative to": "methylene blue", "singlet oxygen quantum yield": 0.64}
{"SMILES": "CN1CCC(C)(C)c2cc3c(-c4ccc(C(=S)N5CCCCC5)s4)c4ccc(=[N+](C)C)cc-4sc3cc21", "technique": "1O2 luminescence", "sample": "air-saturated methanol", "singlet oxygen quantum yield": "< 0.05"}
{"SMILES": "CC(=O)N[C@@H](CC[S+](C)[Ru-4]123([S+](C)CC[C@H](NC(C)=O)C(=O)O)[n+]4ccc5ccccc5c4Nc4cccc([n+]41)-c1cccc([n+]12)Nc1c2ccccc2cc[n+]13)C(=O)[O-].F[P-](F)(F)(F)(F)F (stereo partly shown)", "sample": "CD3OD", "temperature": "298 K", "setting": "excitation 450 nm", "singlet oxygen quantum yield": "2.3%"}
{"SMILES": "CC(C)(C)c1cc(-c2ccc3cc4ccccc4nc3n2)nc(-c2ccc3cc4ccccc4nc3n2)c1.[Cl-].[Cl-].[Ru+2].c1ccc2cc3nc4c5cccnc5c5ncccc5c4nc3cc2c1", "technique": "1O2 phosphorescence", "sample": "acetonitrile", "setting": "excitation maximum 464 nm", "relative to": "Ru(bpy)3(PF6)2", "singlet oxygen quantum yield": 0.05}
{"SMILES": "COc1cc(OC)cc(C2=C3C(C)=C(I)C(/C=C/c4cccs4)=[N+]3[B-](F)(F)n3c(/C=C/c4cccs4)c(I)c(C)c32)c1", "technique": "DPBF absorbance decrease", "sample": "DMSO", "relative to": "methylene blue", "singlet oxygen quantum yield": 0.37}
{"SMILES": "CC(C)(C)c1cc(-c2ccc3cccnc3n2)nc(-c2ccc3cccnc3n2)c1.[Cl-].[Cl-].[Ru+2].c1cnc2c(c1)ccc1cccnc12", "technique": "1O2 phosphorescence", "sample": "acetonitrile", "setting": "excitation maximum 455 nm", "relative to": "Ru(bpy)3(PF6)2", "singlet oxygen quantum yield": 0.06}
{"SMILES": "CCCCCCCCC1(CCCCCCCC)c2cc(-c3cc4[n+]5c(c3)-c3cccc[n+]3[Ir-3]536([n+]5ccccc5-c5cc(-c7ccccc7)cc([n+]53)-c3cccc[n+]36)[n+]3ccccc3-4)ccc2-c2ccc(-c3cc4[n+]5c(c3)-c3cccc[n+]3[Ir-3]536([n+]5ccccc5-c5cc(-c7ccccc7)cc([n+]53)-c3cccc[n+]36)[n+]3ccccc3-4)cc21.F[P-](F)(F)(F)(F)F.F[P-](F)(F)(F)(F)F.F[P-](F)(F)(F)(F)F.F[P-](F)(F)(F)(F)F.F[P-](F)(F)(F)(F)F.F[P-](F)(F)(F)(F)F", "sample": "acetonitrile", "tested at": "5 µM", "relative to": "[Ru(bpy)3](PF6)2", "singlet oxygen quantum yield": 0.28}
{"SMILES": "CCOC(=O)c1[nH]c(C)c(/C=C/C2=[N+]3C(=C(c4cc(OC)cc(OC)c4)c4c(C)c(I)c(/C=C/c5c(C)[nH]c(C(=O)OCC)c5C)n4[B-]3(F)F)C(C)=C2I)c1C", "technique": "DPBF absorbance decrease", "sample": "DMSO", "relative to": "methylene blue", "singlet oxygen quantum yield": 0.43}
{"SMILES": "CN1CCC(C)(C)c2cc3c(-c4ccc(C(=O)N5CCCCC5)s4)c4ccc(=[N+](C)C)cc-4sc3cc21", "technique": "1O2 luminescence", "sample": "air-saturated methanol", "singlet oxygen quantum yield": "< 0.05"}
{"SMILES": "[Cl-].[Cl-].[Ru+2].c1cc(-c2ccc3cccnc3n2)nc(-c2ccc3cccnc3n2)c1.c1ccc2cc3nc4c5cccnc5c5ncccc5c4nc3cc2c1", "technique": "1O2 phosphorescence", "sample": "acetonitrile", "setting": "excitation maximum 464 nm", "relative to": "Ru(bpy)3(PF6)2", "singlet oxygen quantum yield": 0.28}
{"SMILES": "CCOC(=O)c1[nH]c(C)c(/C=C/c2c(I)c(C)c3n2[B-](F)(F)[N+]2=C(C)C(I)=C(C)C2=C3c2cc(OC)cc(OC)c2)c1C", "technique": "DPBF absorbance decrease", "sample": "DMSO", "relative to": "methylene blue", "singlet oxygen quantum yield": 0.65}
{"note": "Excerpt of the above:"}
{"SMILES": "CN1CCC(C)(C)c2cc3c(-c4ccc(C(=S)N5CCCCC5)s4)c4ccc(=[N+](C)C)cc-4sc3cc21", "technique": "1O2 luminescence", "sample": "air-saturated methanol", "singlet oxygen quantum yield": "< 0.05"}
